# Results from different studies.
# Compare with care: the assays were run in different laboratories. “And” joins repeats or separate records; there may be more than shown. ± marks the error that the study gave.
# HCRTR1: Orexin/Hypocretin receptor type 1 (HCRTR1, Homo sapiens, UniProt O43613)
# Sequence of UniProt O43613 (whole entry, looked up): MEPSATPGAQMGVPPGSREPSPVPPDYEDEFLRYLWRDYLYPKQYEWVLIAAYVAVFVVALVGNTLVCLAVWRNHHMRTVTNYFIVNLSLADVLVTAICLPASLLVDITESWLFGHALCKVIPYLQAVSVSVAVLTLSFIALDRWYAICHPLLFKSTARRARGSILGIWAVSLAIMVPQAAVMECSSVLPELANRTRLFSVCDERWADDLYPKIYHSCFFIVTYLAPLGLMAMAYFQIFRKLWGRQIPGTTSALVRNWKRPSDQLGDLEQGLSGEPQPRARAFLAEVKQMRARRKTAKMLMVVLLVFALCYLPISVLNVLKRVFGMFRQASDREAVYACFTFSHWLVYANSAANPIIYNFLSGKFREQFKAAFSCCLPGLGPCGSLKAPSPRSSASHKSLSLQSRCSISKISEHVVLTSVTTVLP
SMILES,target or system,assay,system,setting,scale,endpoint,result
COc1ccc(Nc2c3ccccc3nc3occ(Cl)c23)cc1,,,"Wistar rat, male, plasma","intravenous, 4.7 mg/kg",,elimination half-life,59.6 ± 8.28 min
CCCCC(=O)N(Cc1ccc(-c2ccccc2-c2nnn[nH]2)cc1)[C@H](C(=O)O)C(C)C,,,"male human, plasma","oral, 400 mg, day 7, alone, adjusted geometric mean",,AUCtau at steady state,30800 ng·h/mL
CN(C)C(=O)c1cc2cnc(Nc3ccc(N4CCNCC4)cn3)nc2n1C1CCCC1,,,patients Rb+ solid tumours,"oral, dose not given, all doses treatment-related",,QT prolongation all grades,11%
CCn1c(=O)c2c(nc(/C=C/c3ccc(O)c(OC)c3)n2C)n(CC)c1=O,,,"healthy humans, plasma","oral, 40 mg, with: rifampin 600 mg/day",,metabolite to parent AUCinf ratio,0.0821
CC(C)[C@H](NC(=O)[C@@H]1CCCN1C(=O)[C@H](CCCNC(=N)N)NC(=O)[C@H](CS)NC(=O)[C@H](Cc1c[nH]c2ccccc12)NC(=O)[C@H](CCCNC(=N)N)NC(=O)[C@@H](Cc1ccccc1)NC(=O)[C@H](Cc1c[nH]cn1)NC(=O)[C@H](CCC(=O)O)NC(=O)[C@H](CS)NC(=O)[C@H](CS)NC(=O)[C@H](CCCCN)NC(=O)[C@@H]1CC(=O)N[C@@H](CCCNC(=N)N)C(=O)N[C@@H](C(C)C)C(=O)N[C@@H](CC(=O)O)C(=O)N[C@H](Cc2ccc(O)cc2)C(=O)N1)C(N)=O [technetium-99m labelled],,,"C57 mouse, female, B16/F1 melanoma, liver","intravenous, 2 h, with: NDP-MSH 10 µg co-injected",,tissue uptake,1.32 ± 0.14 %ID/g
CCCS(=O)(=O)Nc1ccc(F)c(C(=O)c2c[nH]c3ncc(-c4ccc(Cl)cc4)cc23)c1F,,rapid equilibrium dialysis,100% human plasma,"350 µM, 4 h",,unbound fraction in incubation,1.17e-05 ± 2.5e-06
[2H]C([2H])([2H])Oc1cc2c(cc1OC([2H])([2H])[2H])C1CC(=O)C(CC(C)C)CN1CC2 (stereo not drawn),,measured: deuterated total (α+β)-HTBZ,"healthy human volunteers, plasma","oral, 18 mg single dose, standard meal",,dose-normalized AUC(0-t),21.2 ng·h/mL
Cn1c(-c2ccc(C(N)=O)cc2F)nnc1C(C)(C)Oc1c(F)cc(Cl)cc1F,,,"healthy young Japanese subjects, plasma","oral, 50 mg once daily, day 18, 14 days dosing",,Cmax mean,767 ng/mL
CCCCCCCCN(CCCCCCCC)CC(=O)N(CC(=O)N(CCCCN)CC(=O)N(CCN)CC(=O)N(CC(N)=O)C1CCCCC1)C1CCCCC1,,preparative RP-HPLC C18,water to acetonitrile gradient,0.05% TFA in eluent,higher = more hydrophobic,acetonitrile at elution,69.3%
Cc1cc(C)c2c(c1)[C@@H](N(Cc1cc(C(F)(F)F)cc(C(F)(F)F)c1)c1nnn(C)n1)CCCN2C[C@H]1CC[C@H](C(=O)O)CC1,,,"human, plasma","oral, 100 mg once daily, steady state, geometric mean",,Vss/F,998 L
CC(C)C[C@H](NC(=O)[C@H](CCc1ccccc1)NC(=O)CN1CCOCC1)C(=O)N[C@@H](Cc1ccccc1)C(=O)N[C@@H](CC(C)C)C(=O)[C@@]1(C)CO1,,LC-MS,"human, plasma","intravenous push, 15 mg/m^2",,Vz,192 L
CCC(CC)O[C@@H]1C=C(C(=O)O)C[C@H](N)[C@H]1NC(C)=O,,,"healthy Indian subjects, fed, plasma","oral, 75 mg oseltamivir phosphate, reference capsule formulation, Tamiflu",,elimination rate constant,2.61e-05 ± 3.33e-06 s⁻¹
CN(c1ccccc1)c1nccc(-c2cnn3ncccc23)n1,,,human liver microsomes,,,CLint,450 µL/min/mg
N#C[C@@H]1CCCN1C(=O)CNC12CC3CC(CC(O)(C3)C1)C2,,,"male ICR mouse, kidney","oral, 3 mg/kg, 24 h",,AUC,19800 ng·h/mL
C[C@H]1Oc2cc(cnc2N)-c2c(nn(C)c2C#N)CN(C)C(=O)c2ccc(F)cc21,,,"mouse Balb/c nude female, plasma","5 mg/kg BID, 12 h, Lu-01-0015 and NCI-H3122 models",,"free Cmin,ss",120 to 134 nM
CCCC[C@@H]1NC(=O)[C@@H](NC(=O)[C@H](CCC(=O)O)NC(=O)CNC(=O)CN2CCN(CC(=O)O)CCN(CC(=O)O)CCN(CC(=O)O)CC2)CCCCNC(=O)C[C@@H](C(N)=O)NC(=O)[C@H](C(C)C)NC(=O)[C@@H]2CCCN2C(=O)[C@H](CCCNC(=N)N)NC(=O)CNC(=O)[C@H](Cc2c[nH]c3ccccc23)NC(=O)[C@H](CCCNC(=N)N)NC(=O)[C@@H](Cc2ccccc2)NC(=O)[C@H](Cc2c[nH]cn2)NC(=O)[C@H](CCC(=O)O)NC1=O [indium-111 labelled],,,"C57 mice, B16/F10 lung metastatic melanoma, stomach","intravenous, 0.037 MBq, 24 h",,tissue uptake,0.05 ± 0.03 %ID/g
COc1cc2c(cc1OC)C(CCCC1CCCCC1)N(CC(=O)NCc1ccccc1)CC2 (stereo not drawn),HCRTR1,"calcium signal, antagonist, fluorescence",,,,Kb,> 10000 nM
CS/C(S)=N/CCCC[S+](C)[O-] (racemic),,"RT-PCR, measured: Cyp2e1","female Sprague-Dawley rat, colon","oral gavage, 200 mg/kg, dosed for four days",baseline: vehicle,mRNA fold change,0.292
O=C(/C=C/c1ccc(O)c(O)c1)O[C@H](Cc1ccc(O)c(O)c1)C(=O)O,,UPLC-MS/MS,"Wistar rat, microcirculation dysfunction model, plasma","oral, 100 mg/kg Salvia miltiorrhiza stem-leaf extract FS",,MRT(0-t),292 ± 73.2 min
C[N+]1(CC(=O)OC2CCCCCCCCCCC2)CCC(Cc2ccccc2)CC1.[I-] (stereo not drawn),,,phosphate buffer with 2% DMSO,"90 min, pH 7.4, theoretical maximum 200 µM",,aqueous solubility,113 µM
Cc1ccc(C(=O)c2oc3ccc4c(C)cc(=O)oc4c3c2C)cc1,,,0.1 M sodium acetate with 0.01% Triton X-100,pH 5.5,,maximum solubility,2.5 µM
CCCC[C@H](NC(C)=O)C(=O)N[C@H]1CCC(=O)NC[C@@H](C(=O)N[C@@H](Cc2c[nH]c3ccccc23)C(N)=O)NC(=O)[C@H](CCCNC(=N)N)NC(=O)[C@@H](Cc2ccccc2)NC(=O)[C@H](Cc2c[nH]cn2)NC1=O,,,"CD Sprague Dawley rat, male, plasma","subcutaneous, 1.0 mg/kg daily, day 1",,Vd/F,1.15 L/kg
CC(=O)N[C@H](CSSC[C@H](N)C(=O)O)C(=O)N[C@H](C)C(=O)N[C@H](CCCNC(=N)N)C(=O)N[C@H](CCCNC(=N)N)C(=O)N[C@H](CCCNC(=N)N)C(=O)N[C@H](C)C(=O)N[C@H](CCCNC(=N)N)C(N)=O,,in vitro hemodialysis,Solvable washout,2 h,baseline: dose,recovery in washout,3.3%
COc1cc2c3c(n(CCCN4CCOCC4)c(=O)c2cc1OC)-c1cc2c(cc1C3=O)OCO2,,,"patients, plasma","intravenous infusion, 20 mg/m^2 daily over 1 h, cycle 1 day 4",,AUC(0-24 h),5090 ng·h/mL
CCC(CC)COC(=O)[C@H](C)N[P@](=O)(OC[C@H]1O[C@@](C#N)(c2ccc3c(N)ncnn23)[C@H](O)[C@@H]1O)Oc1ccccc1,,,20% w/w aqueous SBECD,"24 h, pH 1.9, 25 °C, SBECD source 4",,equilibrium solubility,7620 µg/mL
C[C@@H](O)[C@H]1C(=O)N2C(C(=O)O)=C(S[C@@H]3CN[C@H](C(=O)N(C)C)C3)[C@H](C)[C@H]12,,microdialysis,"pig, Danish Landrace, subcutaneous adipose tissue","intravenous, 1000 mg over 10 min, 450 min dosing interval, with: 0.125 µg/mL MIC",baseline: dosing interval,time above MIC,74%
Cc1nc2cccc(OCC(C)(C)C(=O)NC(C)C)c2c(N)c1C(=O)O,,,"Sprague-Dawley rat Crl:CD(SD), male, plasma","oral gavage, 10 mg/kg, day 7",,half-life,50.4 min
C=CC(=C)CC[C@]1(C)[C@H](C)C[C@H](OC(=O)CCCCCCCCC)[C@@]23C(=C[C@H](OC(C)=O)C[C@@H]12)[C@@H](OC(C)=O)O[C@H]3OC(C)=O,,haemolysis,,20 µM,,haemolysis,5.1%
CN(C)C(=O)c1cc2cnc(Nc3ccc(N4CCNCC4)cn3)nc2n1C1CCCC1,,,"human, plasma","oral, 600 mg daily for 8 days, day of surgery",,unbound plasma concentration,370 nM
CCCNc1cc(CC2c3cc(OC)c(OC)cc3CCN2CC(=O)NCc2ccccc2)ccc1OC (stereo not drawn),HCRTR1,"calcium signal, antagonist, fluorescence",,,,Kb,920 nM
CS(=O)(=O)OC[C@H](O)[C@@H]1CO1,,,"Wistar rat, male, red blood cells and plasma","intraperitoneal, 500 mg/kg treosulfan, 4 h",,RBC/plasma partition coefficient,0.57 and 0.64 and 0.79
Cc1cc(OCC(=O)O)cc(C)c1Cc1ccc(O)c(C(C)C)c1,,,"C57BL/6 mouse, serum","oral, 30.5 µmol/kg, enterohepatic circulation",,time of secondary peak,~8 h
Cc1ccc(NC(=O)c2ccc(CN3CCN(C)CC3)cc2)cc1Nc1nccc(-c2cncc(-c3oncc3C)c2)n1,,,"older healthy human adults, plasma","oral, 75.0 mg single dose, fed, mean",,AUC(0-t),58400 ng·h/mL
CC(C)(Sc1ccncc1-c1ccc(C#N)c2ccccc12)C(=O)O,,,"Japanese male subjects, plasma","oral, 10 mg, single dose, fed, geometric least squares mean",,AUC(0-24),195 ng·h/mL
CN[C@@H]1[C@H](O)[C@H](NC)[C@H]2O[C@]3(O)[C@H](O[C@@H]2[C@H]1O)O[C@H](C)C[C@H]3NC(=O)Cc1ccccn1,,glutathione conjugation,human liver S9,"100 µM, 2 h, pH 7.4, with: glutathione 0.2 mM",,parent remaining,96.7%
COCCNC(=O)CN(CCN(CCN(CC(=O)[O-])CC(=O)NCCOC)CC(=O)[O-])CC(=O)[O-].[Gd+3],,MRI at 9.4 T,saline,"37 °C, per Gd",,T1 relaxivity r1,4.5 ± 0.1 mM⁻¹ s⁻¹
CC(C)C[C@H](NC(=O)[C@H](Cc1ccccc1)NC(=O)c1cnccn1)B(O)O,,,"paediatric ALL or AML patients, plasma","intravenous, 1.3 mg/m^2 twice weekly, day 8, population PK, BSA 1.8 m^2",,CL,160 mL/min
CO/N=C1\CCc2ccccc2C(=O)Nc2ccccc21,,nephelometry,aqueous buffer,"30 min, pH 6.5",,kinetic solubility,> 100 µg/mL
CCCOc1ccc([C@H]2CNC(=O)N2c2ccc3[nH]cnc3c2)cc1,,,"human, plasma","oral, 800 mg, single dose, fasted",,AUC(0-t),8190 ng·h/mL
O=C1Nc2ccccc2C(=O)CCCc2ccccc21,,nephelometry,aqueous buffer,"30 min, pH 6.5",,kinetic solubility,> 100 µg/mL
Cn1cc(-c2ccc3nnc(Sc4ccc5ncccc5c4)n3n2)cn1,,,"guinea pig Hartley male, hepatic S9","1 µM, pH 7.4, with: hydralazine 50 µM, without NADPH",,CLint,14.6 ± 6.05 mL/min/kg
CC[C@H](C)[C@@H]1NC(=O)[C@H](Cc2ccc(O)cc2)NC(=O)[C@@H](N)CSSC[C@@H](C(=O)N2CCC[C@H]2C(=O)N[C@@H](CC(C)C)C(=O)NCC(N)=O)NC(=O)[C@H](CC(N)=O)NC(=O)[C@H](CCC(N)=O)NC1=O,,"microdialysis, RIA","male knockout mouse, amygdala ECF","i.p., 12 µg",,AUC,101 ± 51 pg·30 min/sample

# Excerpt of the above:
SMILES,target or system,assay,system,setting,scale,endpoint,result
Cc1ccc(C(=O)c2oc3ccc4c(C)cc(=O)oc4c3c2C)cc1,,,0.1 M sodium acetate with 0.01% Triton X-100,pH 5.5,,maximum solubility,2.5 µM
CCCCC(=O)N(Cc1ccc(-c2ccccc2-c2nnn[nH]2)cc1)[C@H](C(=O)O)C(C)C,,,"male human, plasma","oral, 400 mg, day 7, alone, adjusted geometric mean",,AUCtau at steady state,30800 ng·h/mL
CC(=O)N[C@H](CSSC[C@H](N)C(=O)O)C(=O)N[C@H](C)C(=O)N[C@H](CCCNC(=N)N)C(=O)N[C@H](CCCNC(=N)N)C(=O)N[C@H](CCCNC(=N)N)C(=O)N[C@H](C)C(=O)N[C@H](CCCNC(=N)N)C(N)=O,,in vitro hemodialysis,Solvable washout,2 h,baseline: dose,recovery in washout,3.3%
Cn1cc(-c2ccc3nnc(Sc4ccc5ncccc5c4)n3n2)cn1,,,"guinea pig Hartley male, hepatic S9","1 µM, pH 7.4, with: hydralazine 50 µM, without NADPH",,CLint,14.6 ± 6.05 mL/min/kg
Cc1nc2cccc(OCC(C)(C)C(=O)NC(C)C)c2c(N)c1C(=O)O,,,"Sprague-Dawley rat Crl:CD(SD), male, plasma","oral gavage, 10 mg/kg, day 7",,half-life,50.4 min
CN(C)C(=O)c1cc2cnc(Nc3ccc(N4CCNCC4)cn3)nc2n1C1CCCC1,,,patients Rb+ solid tumours,"oral, dose not given, all doses treatment-related",,QT prolongation all grades,11%
